Published values from different studies.
Compare with care: the assays were run in different laboratories. Values joined by “and” are separate records of one study, mostly repeats; a detail may differ. ± marks the error that the study gave.

`CC1CCC2C(C)C(OC(=O)CCC(=O)N3CCC(Nc4ccc(S(=O)(=O)NC(=O)c5ccc(N6CCN(CC7=C(c8ccc(Cl)cc8)CC(C)(C)CC7)CC6)cc5Oc5cnc6[nH]ccc6c5)cc4[N+](=O)[O-])CC3)OC3OC4(C)CCC1C32OO4` (stereo not drawn) gave an apoptotic cells of 70% (THP-1; annexin V/PI flow cytometry; 0.8 µM, 24 h).
With `CC[C@H](C)[C@H](NC(=O)[C@H](C)NC(=O)CNC(=O)[C@H](Cc1ccccc1)NC(=O)[C@H](CC(N)=O)NC(=O)[C@H](CC(N)=O)NC(=O)[C@H](CO)NC(=O)[C@H](CO)NC(=O)[C@H](Cc1c[nH]cn1)NC(=O)[C@@H](NC(=O)[C@H](CC(C)C)NC(=O)[C@H](Cc1ccccc1)NC(=O)[C@H](CC(N)=O)NC(=O)[C@H](C)NC(=O)[C@H](CC(C)C)NC(=O)[C@H](CCCNC(=N)N)NC(=O)[C@H](CCC(N)=O)NC(=O)[C@@H](NC(=O)[C@H](C)NC(=O)[C@@H]1CSSC[C@H](NC(=O)[C@@H](N)CCCCN)C(=O)N[C@@H](CC(N)=O)C(=O)N[C@@H]([C@@H](C)O)C(=O)N[C@@H](C)C(=O)N[C@@H]([C@@H](C)O)C(=O)N1)[C@@H](C)O)C(C)C)C(=O)N[C@@H](CC(C)C)C(=O)N[C@@H](CO)C(=O)N[C@@H](CO)C(=O)N[C@H](C(=O)N[C@@H](CC(N)=O)C(=O)N[C@H](C(=O)NCC(=O)N[C@@H](CO)C(=O)N[C@@H](CC(N)=O)C(=O)N[C@H](C(=O)N[C@@H](Cc1ccc(O)cc1)C(N)=O)[C@@H](C)O)C(C)C)[C@@H](C)O` the Pearson coefficient was over 0.6 (RIN-m5F; item: DRAQ5 nuclear marker; 10 µM, 24 h).
Under “inflection point of cell death”, `CC(C)NCCCn1c(Sc2cc3c(cc2I)OCO3)nc2c(N)ncnc21` is recorded as 2 to 2.5 µM (MDA-MB-468; annexin V staining and cleaved PARP).
With `O=C(C[Se]C(=O)c1ccccc1Nc1ccccc1)Nc1cccc(C(F)(F)F)c1` the CC50 was 7.6 µM (NCI60 CNS subpanel; NCI60 five-dose screen).
`O=C(O)c1ccc(-c2nc(-c3ccccc3Cl)c3sccn23)cc1` — result for “CD235a fluorescence intensity”: 0.99 fold change and 0.85 fold change and 1.53 fold change (K562; erythroid differentiation, flow cytometry; 0.1 mM, 24 h; baseline: untreated).
`CNC(=S)N/N=C/c1ccc(OCc2ccccc2)cc1`: “catalase activity (OD450)” 0.086 a.u. (IMR-32; 500 µg/mL, 24 h; higher = more activity).
`CC(C)(C)C(=O)OCOP(=O)(OCOC(=O)C(C)(C)C)C1CCCN(O)C1=O` (stereo not drawn) has a log TGI of -4.37 log M (SW-620).
`CC(C)C[C@H](NC(=O)[C@H](CC(=O)O)NC(=O)CNC(=O)[C@@H](N)CCCNC(=N)N)C(=O)N[C@@H](C)C(=O)N[C@H](C(=O)N[C@@H](CC(C)C)C(=O)N[C@@H](CCCNC(=N)N)C(=O)N[C@@H](CCC(N)=O)C(=O)N[C@@H](CC(C)C)C(=O)N[C@@H](C)C(=O)N[C@@H](CCC(N)=O)C(=O)N[C@@H](CCC(=O)O)C(=O)N[C@@H](CC(=O)O)C(=O)NCC(=O)N[C@H](C(=O)N[C@H](C(=O)NCC(=O)N[C@H](C(=O)N[C@@H](CCCNC(=N)N)C(=O)NCCOCCOCCOCCOCCOCCOCCOCCOCCOCCOCCOCCOCCC(=O)N[C@@H](CS)C(N)=O)C(C)C)C(C)C)C(C)C)[C@@H](C)O` gave a selectivity ratio of 180 ± 66 (HCC827; phage binding; baseline: targeting over control phage).
`O=C(C[Se]C(=O)c1cc2ccccc2[nH]1)Nc1cccc(C(F)(F)F)c1` has a CC50 of 6.25 µM (NCI60 CNS subpanel; NCI60 five-dose screen).
Under “cell migration and invasion”, `CC(C)C[C@H](NC(=O)[C@H](CCC(=O)O)NC(=O)[C@@H](N)Cc1ccccc1)C(=O)N[C@@H](CCC(=O)O)C(=O)N[C@@H](CCCNC(=N)N)C(=O)N[C@@H](CCCNC(=N)N)C(=O)N[C@@H](Cc1ccccc1)C(=O)N[C@@H](CCCCN)C(=O)N[C@@H](CCC(N)=O)C(=O)N[C@@H](CCC(N)=O)C(=O)O` is recorded as “no effect” (HCT-116; Transwell; concentration not given; baseline: vehicle).
With `O=C(C[Se]C(=O)c1ccccc1)Nc1cccc(C(F)(F)F)c1` the GI50 was 2.58 µM (NCI60 breast subpanel; NCI60 five-dose screen).
The growth percent of `CC1OC2OC3C4=C(OC3(C)C12O)C(=O)c1c(O)cccc1C4=O` (stereo not drawn) is reported as -64.6% (HepG2; SRB; 10 µg/mL, 48 h; negative values mean cell killing).
For `CC(=O)Oc1ccccc1C(=O)[Se]CC(=O)Nc1cccc(C(F)(F)F)c1`, the CC50 was 57.3 µM (NCI60 CNS subpanel; NCI60 five-dose screen).
With `CSCC[C@H](NC(=O)[C@@H](NC(=O)[C@H](CCC(N)=O)NC(=O)[C@H](CO)NC(=O)[C@@H](N)C(C)C)[C@@H](C)O)C(=O)N[C@@H](CCCNC(=N)N)C(=O)N[C@@H](CCC(N)=O)C(=O)N[C@H](C(=O)N[C@@H](C)C(=O)N[C@H](C(=O)N1CCC[C@H]1C(=O)N[C@@H](CC(C)C)C(=O)N[C@@H](CC(C)C)C(=O)N[C@@H](Cc1c[nH]c2ccccc12)C(=O)N[C@@H](Cc1ccccc1)C(=O)N[C@@H](Cc1c[nH]c2ccccc12)C(=O)N[C@H](C(=O)NCC(=O)N[C@@H](CO)C(=O)N[C@@H](CC(C)C)C(=O)NCCOCCOCCOCCOCCOCCOCCOCCOCCOCCOCCOCCOCCC(=O)N[C@@H](CS)C(N)=O)[C@@H](C)O)C(C)C)[C@@H](C)O` the selectivity ratio was 200 ± 60 (Huh-7 liver cancer; phage binding; baseline: targeting over control phage).
For `COc1ccc(NC(=O)c2ccc3[nH]c(-c4ccc(N(C)C)cc4)nc3c2)cn1`, the PI-positive cells was 263 count and 196 count and 190 count (HCT116; IncuCyte; concentration not given, 36 (unit not given)).
For `CC(C)[C@H](NC(=O)[C@H](CCCNC(=N)N)NC(=O)[C@@H]1CCCN1C(=O)[C@@H](NC(=O)[C@H](C)NC(=O)[C@H](Cc1ccc(O)cc1)NC(=O)[C@H](CCC(N)=O)NC(=O)[C@H](CCCCN)NC(=O)[C@H](CCCNC(=N)N)NC(=O)[C@@H]1CCCN1C(=O)[C@H](CCC(=O)O)NC(=O)[C@@H](NC(=O)[C@H](C)N)[C@@H](C)O)[C@@H](C)O)C(=O)N[C@@H](Cc1ccccc1)C(=O)N[C@@H](Cc1c[nH]c2ccccc12)C(=O)N[C@H](C(=O)N[C@@H](CC(=O)O)C(=O)N[C@@H](C)C(=O)N1CCC[C@H]1C(=O)NCC(=O)NCCOCCOCCOCCOCCOCCOCCOCCOCCOCCOCCOCCOCCC(=O)N[C@@H](CS)C(N)=O)[C@@H](C)O`, the selectivity ratio was 0.46 ± 0.14 (H1975 lung adenocarcinoma; cell binding, phage binding, item: output/input phage; 10 min, 37 °C; baseline: control phage).
`CCCNC(=O)[C@H]1O[C@@H]1C(=O)N[C@H](C(=O)N1CCC[C@H]1C(=O)OCC1=C2C(C)=CC(C)=[N+]2[B-](C)(C)n2c(C)cc(C)c21)[C@@H](C)CC` has a phototherapeutic index of over 30 (MDA-MB-231; MTT; baseline: dark over light).
`O=C(C[Se]C(=O)c1cccs1)Nc1cccc(C(F)(F)F)c1`: “mean growth percent” -52.9% (NCI60 colon subpanel; cell growth; 10 µM, 48 h, one-dose).
For `Cc1cc(Oc2nc(N3CC[C@@H](c4ccncc4)C3)ncc2F)[nH]n1`, the IC50 was over 100 µM (T24; cell proliferation; bladder cancer).
For `CC(=O)NCSC[C@H](NC(=O)[C@@H]1CCCN1C(=O)[C@H](C)NC(=O)[C@@H](NC(=O)CNC(=O)[C@@H](NC(=O)[C@H](Cc1c[nH]c2ccccc12)NC(=O)[C@H](C)NC(=O)CNC(=O)[C@H](CO)NC(=O)[C@H](C)NC(=O)[C@@H]1CCCN1C(=O)[C@H](Cc1c[nH]c2ccccc12)NC(=O)[C@H](C)NC(=O)[C@H](C)NC(=O)[C@@H](N)Cc1ccc(O)cc1)[C@@H](C)O)[C@@H](C)O)C(=O)N[C@@H](CO)C(=O)N[C@@H](C)C(=O)NCC(=O)N[C@H](C(=O)NCCOCCOCCOCCOCCOCCOCCOCCOCCOCCOCCOCCOCCC(=O)N[C@@H](CS)C(N)=O)[C@@H](C)O`, the selectivity ratio was 3.9 ± 1.8 (HCC2279 lung adenocarcinoma; cell binding, phage binding, item: output/input phage; 10 min, 37 °C; baseline: control phage).
`CC(C)CC(O)(CC(C)C)c1cn(C(=O)N2CCCC2)nn1` gave an SILAC ratio of 1.08 and 0.71 (mouse T-cells; protein abundance, unenriched SILAC proteomics, item: Uqcrh; 1 nM, 6 h, single tryptic peptide; baseline: DMSO).
The mRNA level of `CSCC[C@H](N)C(=O)N[C@@H](C)C(=O)N[C@@H](Cc1c[nH]c2ccccc12)C(=O)N[C@@H](Cc1c[nH]cn1)C(=O)N[C@@H](CC(=O)O)C(=O)N[C@@H](CC(=O)O)C(=O)N[C@@H](CCC(=O)O)C(=O)N[C@@H](CCC(=O)O)C(=O)N[C@@H](Cc1ccccc1)C(=O)N[C@@H](C)C(=O)N[C@@H](CCCNC(=N)N)C(=O)N[C@@H](CCCNC(=N)N)C(=O)N[C@@H](CCCNC(=N)N)C(=O)N[C@@H](CCCNC(=N)N)C(=O)NCCCCCC(=O)NCCCCC(NC(=O)CCCCCNC(=O)[C@H](CCCNC(=N)N)NC(=O)[C@H](CCCNC(=N)N)NC(=O)[C@H](CCCNC(=N)N)NC(=O)[C@H](CCCNC(=N)N)NC(=O)[C@H](C)NC(=O)[C@H](Cc1ccccc1)NC(=O)[C@H](CCC(=O)O)NC(=O)[C@H](CCC(=O)O)NC(=O)[C@H](CC(=O)O)NC(=O)[C@H](CC(=O)O)NC(=O)[C@H](Cc1c[nH]cn1)NC(=O)[C@H](Cc1c[nH]c2ccccc12)NC(=O)[C@H](C)NC(=O)[C@@H](N)CCSC)C(=O)NCCCCC(NC(=O)C(CCCCNC(=O)CCCCCNC(=O)[C@H](CCCNC(=N)N)NC(=O)[C@H](CCCNC(=N)N)NC(=O)[C@H](CCCNC(=N)N)NC(=O)[C@H](CCCNC(=N)N)NC(=O)[C@H](C)NC(=O)[C@H](Cc1ccccc1)NC(=O)[C@H](CCC(=O)O)NC(=O)[C@H](CCC(=O)O)NC(=O)[C@H](CC(=O)O)NC(=O)[C@H](CC(=O)O)NC(=O)[C@H](Cc1c[nH]cn1)NC(=O)[C@H](Cc1c[nH]c2ccccc12)NC(=O)[C@H](C)NC(=O)[C@@H](N)CCSC)NC(=O)CCCCCNC(=O)[C@H](CCCNC(=N)N)NC(=O)[C@H](CCCNC(=N)N)NC(=O)[C@H](CCCNC(=N)N)NC(=O)[C@H](CCCNC(=N)N)NC(=O)[C@H](C)NC(=O)[C@H](Cc1ccccc1)NC(=O)[C@H](CCC(=O)O)NC(=O)[C@H](CCC(=O)O)NC(=O)[C@H](CC(=O)O)NC(=O)[C@H](CC(=O)O)NC(=O)[C@H](Cc1c[nH]cn1)NC(=O)[C@H](Cc1c[nH]c2ccccc12)NC(=O)[C@H](C)NC(=O)[C@@H](N)CCSC)C(N)=O` (stereo partly drawn) is reported as 1.06 (mouse bone marrow macrophages; RT-qPCR, item: Mapk14 (p38α); concentration not given, mean, unit not given, with: RANKL; baseline: RANKL alone).
The CC50 of `O=C(C[Se]C(=O)c1ccco1)Nc1cccc(C(F)(F)F)c1` is reported as 62.6 µM (NCI60 breast subpanel; NCI60 five-dose screen).
`COc1ccccc1-c1ccncc1C(=O)Nc1nnc(OCc2ccc(Cl)cc2)s1` gave a colony survival of 94.7% (DLD-1 parental (BRCA2 WT); 0.125 µM, average of 3 runs; baseline: untreated).

Repeated from above:
With `O=C(C[Se]C(=O)c1ccccc1Nc1ccccc1)Nc1cccc(C(F)(F)F)c1` the CC50 was 7.6 µM (NCI60 CNS subpanel; NCI60 five-dose screen).
With `CC[C@H](C)[C@H](NC(=O)[C@H](C)NC(=O)CNC(=O)[C@H](Cc1ccccc1)NC(=O)[C@H](CC(N)=O)NC(=O)[C@H](CC(N)=O)NC(=O)[C@H](CO)NC(=O)[C@H](CO)NC(=O)[C@H](Cc1c[nH]cn1)NC(=O)[C@@H](NC(=O)[C@H](CC(C)C)NC(=O)[C@H](Cc1ccccc1)NC(=O)[C@H](CC(N)=O)NC(=O)[C@H](C)NC(=O)[C@H](CC(C)C)NC(=O)[C@H](CCCNC(=N)N)NC(=O)[C@H](CCC(N)=O)NC(=O)[C@@H](NC(=O)[C@H](C)NC(=O)[C@@H]1CSSC[C@H](NC(=O)[C@@H](N)CCCCN)C(=O)N[C@@H](CC(N)=O)C(=O)N[C@@H]([C@@H](C)O)C(=O)N[C@@H](C)C(=O)N[C@@H]([C@@H](C)O)C(=O)N1)[C@@H](C)O)C(C)C)C(=O)N[C@@H](CC(C)C)C(=O)N[C@@H](CO)C(=O)N[C@@H](CO)C(=O)N[C@H](C(=O)N[C@@H](CC(N)=O)C(=O)N[C@H](C(=O)NCC(=O)N[C@@H](CO)C(=O)N[C@@H](CC(N)=O)C(=O)N[C@H](C(=O)N[C@@H](Cc1ccc(O)cc1)C(N)=O)[C@@H](C)O)C(C)C)[C@@H](C)O` the Pearson coefficient was over 0.6 (RIN-m5F; item: DRAQ5 nuclear marker; 10 µM, 24 h).
With `O=C(C[Se]C(=O)c1ccccc1)Nc1cccc(C(F)(F)F)c1` the GI50 was 2.58 µM (NCI60 breast subpanel; NCI60 five-dose screen).
